# Values quoted from earlier work that unrelated publications cite.
# By UniProt entry, the sequences of proteins in these tests, tags left out. Residues count along the entry.
# UniProt Q14790, 214-479 D374A/D384A/C409S/C433S limits assumed: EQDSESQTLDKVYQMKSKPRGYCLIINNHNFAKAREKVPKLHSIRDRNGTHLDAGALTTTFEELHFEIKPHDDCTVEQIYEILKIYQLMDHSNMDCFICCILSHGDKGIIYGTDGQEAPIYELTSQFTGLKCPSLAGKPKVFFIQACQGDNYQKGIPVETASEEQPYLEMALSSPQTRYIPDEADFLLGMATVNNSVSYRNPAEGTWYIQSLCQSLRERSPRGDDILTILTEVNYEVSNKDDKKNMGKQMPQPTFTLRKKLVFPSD
# Compare with care: the assays were run in different laboratories.
SMILES,tested on,test,test system,conditions,scale,quantity,value
CC(=O)N1c2ccc(-c3ccc(C#N)cc3)cc2[C@@H](Nc2ncccc2F)[C@@H](C)[C@H]1C1CC1,"Bromodomain-containing protein 4, BD2 (BRD4, Homo sapiens, UniProt O60885)",inhibitor,,2,,IC50,< 0.1 µM
CCCC1c2ccccc2C=NN1C(=O)/C=C/c1cc(Cc2cnc(N)nc2N)cc(OC)c1OC (racemic),Bacillus anthracis,,Sterne,,,MIC,1 to 4 mg/L
c1cc[n+](CCCCCCCCCC[n+]2ccccc2)cc1,,,mouse,,reference: LD50 pretreated over non-pretreated,protective ratio,0.91
O=C(c1ccc(N2CCOCC2)cc1)N1CCC[C@@H](N(C(=O)CCl)c2ccccc2)C1,"Caspase-8 (CASP8, Homo sapiens, UniProt Q14790, C409S/C433S/D374A/D384A)","probe labeling, competitive gel-based ABPP",,previously reported value,,IC50,0.7 µM

# A few entries again:
SMILES,tested on,test,test system,conditions,scale,quantity,value
O=C(c1ccc(N2CCOCC2)cc1)N1CCC[C@@H](N(C(=O)CCl)c2ccccc2)C1,"Caspase-8 (CASP8, Homo sapiens, UniProt Q14790, C409S/C433S/D374A/D384A)","probe labeling, competitive gel-based ABPP",,previously reported value,,IC50,0.7 µM
